Measured values pooled from the literature.
Each line is one published result; not all experiments were run side by side.
Target: 5-hydroxytryptamine receptor 2C (HTR2C, Homo sapiens, UniProt P28335)
Residues used in one study (P28335 33-458): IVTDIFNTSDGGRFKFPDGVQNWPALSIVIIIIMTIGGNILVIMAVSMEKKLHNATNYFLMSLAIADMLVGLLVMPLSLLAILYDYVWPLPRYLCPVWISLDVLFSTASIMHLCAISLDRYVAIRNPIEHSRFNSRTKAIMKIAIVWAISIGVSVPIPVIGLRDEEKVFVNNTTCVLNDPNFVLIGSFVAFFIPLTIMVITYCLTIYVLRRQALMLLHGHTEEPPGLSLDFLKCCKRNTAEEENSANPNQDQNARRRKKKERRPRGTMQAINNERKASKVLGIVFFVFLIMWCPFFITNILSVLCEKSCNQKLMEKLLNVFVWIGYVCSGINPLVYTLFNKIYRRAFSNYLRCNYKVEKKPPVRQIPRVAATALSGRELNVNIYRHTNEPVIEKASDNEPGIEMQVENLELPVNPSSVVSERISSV

`Cc1ccnc(OC[C@H]2CN(CCN3CCc4ccccc43)CCO2)c1` gave an inhibition of 10.5% (radioligand binding; concentration not given, added: [3H]mesulergine).
`COc1ccc(S(=O)(=O)N2CCc3ccccc3C2)cc1N1CCN(C(=O)c2ccc(F)cc2C(F)(F)F)CC1` gave an inhibition of 11.7% (binding, radioligand binding, agonist site; 1 µM).
For `CC1Cc2ccccc2N1C(=O)CN1CCN(c2ccccc2)CC1` (stereo not drawn), the inhibition was 10.5% (radioligand binding; concentration not given, added: [3H]mesulergine).
For `C[Si](C)(C)C[C@H](CN)CC(=O)O`, the inhibition was -9% (ligand displacement, radioligand; 250 µM).
`CC(C)Cn1c(SCC(=O)N2CCc3ccccc3C2)nc2cc(Cl)ccc2c1=O` gave an inhibition of -7% (ligand displacement, radioligand; 10 µM).
`COc1ccc(C(=O)Nc2c(-c3cccs3)nc3ccccn23)cc1` gave an inhibition of < 50% (ligand displacement, radioligand; 10 µM).
`CC1Cc2ccccc2N1C(=O)CN1CCN(Cc2ccccc2)CC1` (stereo not drawn) gave an inhibition of 0.3% (radioligand binding; concentration not given, added: [3H]mesulergine).
`C[Si]1(C[C@H](CN)CC(=O)O)CCCC1` gave an inhibition of -4% (ligand displacement, radioligand; 70 µM).
`O=C1c2sc(-c3ccc(N4CCC(CO)CC4)nc3F)nc2CCN1c1cccnc1` has an inhibition of -2% (ligand displacement, radioligand; 1 µM).
